Results pooled from the literature.
A part holds a random share of what one study measured. Several values in a cell are separate wells, animals, samples, runs or records. ± gives the spread as reported.
Sequence of UniProt Q8IWQ3 (whole entry, looked up): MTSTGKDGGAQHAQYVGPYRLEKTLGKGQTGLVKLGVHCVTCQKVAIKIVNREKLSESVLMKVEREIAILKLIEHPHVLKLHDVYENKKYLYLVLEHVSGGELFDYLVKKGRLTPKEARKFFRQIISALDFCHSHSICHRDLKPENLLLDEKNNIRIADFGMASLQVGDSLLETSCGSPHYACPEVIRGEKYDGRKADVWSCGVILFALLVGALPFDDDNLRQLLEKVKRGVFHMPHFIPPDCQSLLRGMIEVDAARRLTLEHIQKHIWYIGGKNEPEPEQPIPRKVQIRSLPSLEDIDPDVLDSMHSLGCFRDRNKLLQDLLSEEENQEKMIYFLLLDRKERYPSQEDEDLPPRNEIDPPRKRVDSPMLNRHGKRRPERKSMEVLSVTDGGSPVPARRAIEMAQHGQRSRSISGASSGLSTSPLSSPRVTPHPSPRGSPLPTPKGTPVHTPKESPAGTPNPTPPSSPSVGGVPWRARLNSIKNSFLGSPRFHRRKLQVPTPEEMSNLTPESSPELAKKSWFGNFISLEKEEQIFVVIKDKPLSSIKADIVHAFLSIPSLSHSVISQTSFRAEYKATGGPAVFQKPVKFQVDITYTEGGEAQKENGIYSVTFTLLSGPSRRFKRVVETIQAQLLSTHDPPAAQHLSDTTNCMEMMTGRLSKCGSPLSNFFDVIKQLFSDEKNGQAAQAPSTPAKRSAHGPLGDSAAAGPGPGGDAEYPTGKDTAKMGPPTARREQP
Sequence of UniProt Q86UE8 (whole entry, looked up): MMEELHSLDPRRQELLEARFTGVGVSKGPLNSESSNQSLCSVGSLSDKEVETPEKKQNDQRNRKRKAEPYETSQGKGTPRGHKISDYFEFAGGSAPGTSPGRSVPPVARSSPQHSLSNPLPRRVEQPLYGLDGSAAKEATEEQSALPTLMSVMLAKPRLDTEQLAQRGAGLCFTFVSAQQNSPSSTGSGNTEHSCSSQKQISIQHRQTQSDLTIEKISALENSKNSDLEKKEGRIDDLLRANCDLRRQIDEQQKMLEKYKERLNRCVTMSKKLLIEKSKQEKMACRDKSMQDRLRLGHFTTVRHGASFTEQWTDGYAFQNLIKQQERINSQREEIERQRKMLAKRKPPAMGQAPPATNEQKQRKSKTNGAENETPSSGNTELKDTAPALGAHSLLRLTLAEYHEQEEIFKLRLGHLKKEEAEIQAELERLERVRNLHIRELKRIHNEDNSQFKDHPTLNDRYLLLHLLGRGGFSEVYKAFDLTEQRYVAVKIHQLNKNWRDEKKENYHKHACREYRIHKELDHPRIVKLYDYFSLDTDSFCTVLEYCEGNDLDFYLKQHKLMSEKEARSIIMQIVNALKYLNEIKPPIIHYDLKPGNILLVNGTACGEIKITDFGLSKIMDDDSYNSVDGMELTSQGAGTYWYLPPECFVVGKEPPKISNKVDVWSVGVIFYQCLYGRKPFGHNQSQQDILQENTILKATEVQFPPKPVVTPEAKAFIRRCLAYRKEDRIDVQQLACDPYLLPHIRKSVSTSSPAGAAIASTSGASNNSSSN

Set 1 — concentration: 1 µM
SMILES: CN(C)CC#Cc1ccc(OCCCc2sc(N3CCc4cccc(C(=O)Nc5nc6ccccc6s5)c4C3)nc2C(=O)O)c(F)c1
Phosphatidylinositol 4-phosphate 5-kinase type-1 gamma (PIP5K1C, Homo sapiens, UniProt O60331); cell-free assay, competition with immobilised ligand — remaining binding: 100%.
The remaining binding was 100% (NT-3 growth factor receptor (NTRK3, Homo sapiens, UniProt Q16288); cell-free assay, competition with immobilised ligand).
The remaining binding was 100% (Serine/threonine-protein kinase tousled-like 2 (TLK2, Homo sapiens, UniProt Q86UE8); cell-free assay, competition with immobilised ligand).
For Serine/threonine-protein kinase MAK (MAK, Homo sapiens, UniProt P20794); cell-free assay, competition with immobilised ligand: remaining binding read 100%.
Serine/threonine-protein kinase BRSK2 (BRSK2, Homo sapiens, UniProt Q8IWQ3); cell-free assay, competition with immobilised ligand — remaining binding: 93%.
It gave 100% for remaining binding (Mitogen-activated protein kinase 1 (MAPK1, Homo sapiens, UniProt P28482); cell-free assay, competition with immobilised ligand).
It gave 100% for remaining binding (Platelet-derived growth factor receptor alpha (PDGFRA, Homo sapiens, UniProt P16234); cell-free assay, competition with immobilised ligand).
Tyrosine-protein kinase ZAP-70 (ZAP70, Homo sapiens, UniProt P43403); cell-free assay, competition with immobilised ligand — remaining binding: 100%.
Calcium/calmodulin-dependent protein kinase type 1G (CAMK1G, Homo sapiens, UniProt Q96NX5); cell-free assay, competition with immobilised ligand — remaining binding: 94%.
For Serine/threonine-protein kinase MRCK gamma (CDC42BPG, Homo sapiens, UniProt Q6DT37); competition binding: remaining binding read 90%.
For Cyclin-dependent kinase-like 2 (CDKL2, Homo sapiens, UniProt Q92772); cell-free assay, competition with immobilised ligand: remaining binding read 98%.
It gave 100% for remaining binding (Leucine-rich repeat serine/threonine-protein kinase 2 (LRRK2, Homo sapiens, UniProt Q5S007); cell-free assay, competition with immobilised ligand).
The remaining binding was 98% (Fibroblast growth factor receptor 3 (FGFR3, Homo sapiens, UniProt P22607); cell-free assay, competition with immobilised ligand).
For Phosphatidylinositol 4,5-bisphosphate 3-kinase catalytic subunit alpha isoform (PIK3CA, Homo sapiens, UniProt P42336, I800L); cell-free assay, competition with immobilised ligand: remaining binding read 75%.
Tyrosine-protein kinase ABL1, non-phosphorylated (ABL1, Homo sapiens, UniProt P00519, F317I); binding, competition with immobilised ligand — remaining binding: 100%.
For Mitogen-activated protein kinase 8 (MAPK8, Homo sapiens, UniProt P45983); cell-free assay, competition with immobilised ligand: remaining binding read 62%.

Set 2 — Compound: C=CCc1ccc(O)c(-c2ccc(O)c(CC=C)c2)c1; read-out: chloride current; method: whole-cell voltage clamp
ANO1 del476-501: Anoctamin-1 (ANO1, Homo sapiens, UniProt Q5XXA6, del476-501)
Sequence of UniProt Q5XXA6 (whole entry, unmodified, looked up): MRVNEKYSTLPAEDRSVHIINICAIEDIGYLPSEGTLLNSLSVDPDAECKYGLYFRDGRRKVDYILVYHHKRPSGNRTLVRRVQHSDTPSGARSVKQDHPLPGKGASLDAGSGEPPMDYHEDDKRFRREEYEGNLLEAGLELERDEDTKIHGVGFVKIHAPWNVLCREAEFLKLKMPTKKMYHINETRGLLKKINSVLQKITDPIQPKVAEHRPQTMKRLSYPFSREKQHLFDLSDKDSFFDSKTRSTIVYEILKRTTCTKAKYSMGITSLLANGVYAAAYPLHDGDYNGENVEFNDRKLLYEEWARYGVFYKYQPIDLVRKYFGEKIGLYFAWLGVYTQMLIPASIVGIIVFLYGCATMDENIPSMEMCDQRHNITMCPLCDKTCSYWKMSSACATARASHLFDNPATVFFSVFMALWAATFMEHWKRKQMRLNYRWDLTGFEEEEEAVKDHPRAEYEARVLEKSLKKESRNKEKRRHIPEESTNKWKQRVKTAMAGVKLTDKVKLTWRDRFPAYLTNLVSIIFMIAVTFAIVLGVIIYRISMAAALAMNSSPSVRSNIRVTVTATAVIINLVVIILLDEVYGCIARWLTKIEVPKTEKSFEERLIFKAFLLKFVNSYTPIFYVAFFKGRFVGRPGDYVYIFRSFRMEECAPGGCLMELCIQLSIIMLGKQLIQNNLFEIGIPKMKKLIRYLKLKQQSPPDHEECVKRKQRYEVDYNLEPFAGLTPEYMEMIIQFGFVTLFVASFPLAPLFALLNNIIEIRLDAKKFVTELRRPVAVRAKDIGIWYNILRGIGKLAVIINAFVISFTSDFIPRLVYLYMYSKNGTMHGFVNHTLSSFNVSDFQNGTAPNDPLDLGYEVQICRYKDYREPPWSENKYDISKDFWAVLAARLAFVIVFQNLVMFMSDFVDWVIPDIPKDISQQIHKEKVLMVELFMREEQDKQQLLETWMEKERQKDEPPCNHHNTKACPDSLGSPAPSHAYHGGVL
ANO1 del476-501/F646A: Anoctamin-1 (ANO1, Homo sapiens, UniProt Q5XXA6, del476-501/F646A)
The IC50 was 2.88 µM (ANO1 del476-501; membrane voltage -20 mV, together with: 300 nM Ca2+).
For Anoctamin-1 (ANO1, Homo sapiens, UniProt Q5XXA6, del476-501/M544A); membrane voltage 40 mV: IC50 read 3.6 µM.
ANO1 del476-501/F646A; membrane voltage 100 mV — IC50: 9.57 µM.
For ANO1 del476-501/F646A; membrane voltage -40 mV: IC50 read 5.07 µM.
For Anoctamin-1 (ANO1, Homo sapiens, UniProt Q5XXA6, del476-501/F628I); inhibitor; F602I mutant at -20 mV: IC50 read 10.5 µM.
For Anoctamin-1 (ANO1, Homo sapiens, UniProt Q5XXA6, del476-501/F807Y); inhibitor; 80 mV holding voltage: IC50 read 11.8 µM.
Anoctamin-1 (ANO1, Homo sapiens, UniProt Q5XXA6, del476-501/F803A); inhibitor; mutant F777A at 100 mV, together with: 300 nM Ca2+ — IC50: 14.6 ± 0.6 µM.
It gave 8.72 µM for IC50 (Anoctamin-1 (ANO1, Homo sapiens, UniProt Q5XXA6, del476-501/F807W); inhibitor; 20 mV holding voltage).
It gave 3.23 µM for IC50 (ANO1 del476-501; inhibitor; -100 mV voltage, together with: 300 nM Ca2+).
Anoctamin-1 (ANO1, Homo sapiens, UniProt Q5XXA6, del476-501/R631K); inhibitor; R605K mutant at 20 mV — IC50: 7.09 µM.
The IC50 was 18.7 µM (Anoctamin-1 (ANO1, Homo sapiens, UniProt Q5XXA6, del476-501/R631D); inhibitor; R605D mutant at -60 mV).

Set 3 — read-out: enzyme activity; mode: inhibitor; concentration: 77 µM; baseline: untreated
Target: DNA polymerase theta, ATPase domain (POLQ, Homo sapiens, UniProt O75417)
Sequence of UniProt O75417 (whole entry, unmodified, looked up): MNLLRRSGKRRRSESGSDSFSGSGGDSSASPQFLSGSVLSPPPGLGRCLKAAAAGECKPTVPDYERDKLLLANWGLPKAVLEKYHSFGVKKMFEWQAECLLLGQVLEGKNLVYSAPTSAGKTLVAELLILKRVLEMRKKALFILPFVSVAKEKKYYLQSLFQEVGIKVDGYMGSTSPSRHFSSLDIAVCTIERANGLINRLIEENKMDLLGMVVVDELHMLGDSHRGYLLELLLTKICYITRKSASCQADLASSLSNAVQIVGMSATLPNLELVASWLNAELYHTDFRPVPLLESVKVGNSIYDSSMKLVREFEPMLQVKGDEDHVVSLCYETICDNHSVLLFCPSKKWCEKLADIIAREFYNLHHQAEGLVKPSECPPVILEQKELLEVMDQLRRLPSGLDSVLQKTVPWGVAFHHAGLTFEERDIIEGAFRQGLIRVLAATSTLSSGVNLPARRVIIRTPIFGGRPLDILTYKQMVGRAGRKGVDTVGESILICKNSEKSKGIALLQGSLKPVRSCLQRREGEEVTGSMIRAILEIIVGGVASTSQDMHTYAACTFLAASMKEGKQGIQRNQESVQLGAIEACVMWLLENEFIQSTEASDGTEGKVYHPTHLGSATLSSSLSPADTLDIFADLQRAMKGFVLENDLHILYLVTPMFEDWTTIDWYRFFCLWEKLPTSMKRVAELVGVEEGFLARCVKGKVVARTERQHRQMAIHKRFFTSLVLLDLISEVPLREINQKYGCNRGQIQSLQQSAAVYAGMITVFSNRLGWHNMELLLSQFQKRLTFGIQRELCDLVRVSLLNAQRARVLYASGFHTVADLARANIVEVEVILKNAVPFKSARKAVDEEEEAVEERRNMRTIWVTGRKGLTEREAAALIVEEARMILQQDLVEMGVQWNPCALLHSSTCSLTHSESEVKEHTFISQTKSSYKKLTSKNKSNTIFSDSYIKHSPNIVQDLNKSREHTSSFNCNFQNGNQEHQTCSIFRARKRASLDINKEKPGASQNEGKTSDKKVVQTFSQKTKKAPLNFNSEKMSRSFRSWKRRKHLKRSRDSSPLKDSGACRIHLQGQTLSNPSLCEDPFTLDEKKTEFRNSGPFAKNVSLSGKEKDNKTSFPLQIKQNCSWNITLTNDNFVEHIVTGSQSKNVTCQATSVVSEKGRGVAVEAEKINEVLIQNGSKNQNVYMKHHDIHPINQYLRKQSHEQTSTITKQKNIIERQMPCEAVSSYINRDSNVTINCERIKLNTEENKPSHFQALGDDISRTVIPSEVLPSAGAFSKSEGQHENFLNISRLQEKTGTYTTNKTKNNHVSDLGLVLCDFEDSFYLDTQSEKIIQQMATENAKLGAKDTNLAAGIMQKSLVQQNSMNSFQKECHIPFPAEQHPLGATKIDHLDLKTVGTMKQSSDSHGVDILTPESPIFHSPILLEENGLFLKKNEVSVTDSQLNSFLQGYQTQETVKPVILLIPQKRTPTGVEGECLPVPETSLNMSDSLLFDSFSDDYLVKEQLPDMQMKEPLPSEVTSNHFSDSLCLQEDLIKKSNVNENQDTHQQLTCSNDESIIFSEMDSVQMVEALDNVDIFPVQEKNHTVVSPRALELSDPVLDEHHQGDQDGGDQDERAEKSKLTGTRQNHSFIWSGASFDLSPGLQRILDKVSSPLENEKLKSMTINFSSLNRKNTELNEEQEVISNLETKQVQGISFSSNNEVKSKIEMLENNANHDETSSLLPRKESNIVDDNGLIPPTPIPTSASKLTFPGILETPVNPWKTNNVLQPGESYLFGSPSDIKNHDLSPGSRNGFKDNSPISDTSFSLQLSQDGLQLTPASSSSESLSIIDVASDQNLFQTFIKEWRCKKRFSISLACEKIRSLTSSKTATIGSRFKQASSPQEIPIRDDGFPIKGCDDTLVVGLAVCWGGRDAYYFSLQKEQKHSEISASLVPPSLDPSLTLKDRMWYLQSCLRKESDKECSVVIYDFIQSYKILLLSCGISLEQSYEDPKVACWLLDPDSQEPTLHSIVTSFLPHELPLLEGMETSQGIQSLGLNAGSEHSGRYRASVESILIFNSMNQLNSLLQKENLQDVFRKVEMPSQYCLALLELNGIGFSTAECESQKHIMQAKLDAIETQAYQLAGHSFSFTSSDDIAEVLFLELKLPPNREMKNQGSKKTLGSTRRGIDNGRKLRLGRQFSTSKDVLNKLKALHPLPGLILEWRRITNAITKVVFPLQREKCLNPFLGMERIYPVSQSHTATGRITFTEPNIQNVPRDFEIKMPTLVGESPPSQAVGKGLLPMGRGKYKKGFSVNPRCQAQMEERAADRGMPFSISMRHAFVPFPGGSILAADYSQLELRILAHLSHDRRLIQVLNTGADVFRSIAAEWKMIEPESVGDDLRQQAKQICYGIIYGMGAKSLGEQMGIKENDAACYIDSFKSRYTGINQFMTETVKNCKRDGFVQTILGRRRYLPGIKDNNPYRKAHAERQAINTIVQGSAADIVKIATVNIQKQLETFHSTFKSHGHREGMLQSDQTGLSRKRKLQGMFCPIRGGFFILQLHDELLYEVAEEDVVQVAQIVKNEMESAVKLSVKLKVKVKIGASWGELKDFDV
The remaining activity of O=C(O)C1CCCNC1 (stereo not drawn) is reported as 104%.
The remaining activity of CCN(CC)C(=O)N1CCN(C)CC1 is reported as 103%.
With Cn1cnc2cc3c(Nc4cccc(Br)c4)ncnc3cc21 the remaining activity was 114%.
With N[C@@H](Cc1cc(I)c(Oc2cc(I)c(O)c(I)c2)c(I)c1)C(=O)O the remaining activity was 99.3%.
For O=S(=O)(O)NC1CCCCC1, the remaining activity was 103%.
For C#Cc1cccc(Nc2ncnc3cc4c(cc23)OCCOCCOCCO4)c1, the remaining activity was 104%.
With CCC(=O)O[C@]1(C(=O)SCF)[C@H](C)C[C@H]2[C@@H]3C[C@H](F)C4=CC(=O)C=C[C@]4(C)[C@@]3(F)[C@@H](O)C[C@@]21C the remaining activity was 102% and 95%.
With N=C(N)N the remaining activity was 99.6%.

Set 4 — target: panel of 300 human kinases; concentration: 0.5 µM; reading: higher = more selective
The Gini score of COc1ccc(Cl)cc1NC(=O)Nc1cc(C)nc2ccccc12 is reported as 0.67.
CCCCc1c(-c2ccc(OC)cc2)[nH]c2nccnc12 gave a Gini score of 0.61.
With CCC(=O)Nc1ccc2ncnc(Nc3cccc(Br)c3)c2c1 the Gini score was 0.6.
With COc1cc2ncnc(Nc3ccc(OCc4ccccc4)cc3)c2cc1OC the Gini score was 0.79.
For Cn1cc(/C=C2\C(=O)Nc3ccc(S(N)(=O)=O)cc32)c2ccccc21, the Gini score was 0.54.
CCOc1cc2ncnc(Nc3cccc(Br)c3)c2cc1OCC gave a Gini score of 0.68.
O=C1Nc2ccccc2/C1=C\c1c(Cl)[nH]c2ccccc12 has a Gini score of 0.61.
The Gini score of NC(=O)Nc1sc(-c2ccc(F)cc2)cc1C(N)=O is reported as 0.58.
For O=C1NC(=O)/C(=C/c2ccc3nccnc3c2)S1, the Gini score was 0.64.
With Oc1cccc(-c2nc(N3CCOCC3)c3oc4ncccc4c3n2)c1 the Gini score was 0.57.
The Gini score of O=c1cc(N2CCOCC2)oc2c1ccc1ccccc12 is reported as 0.73.
The Gini score of CN1CCN(c2ccc3nc(-c4c(N)c5c(F)cccc5[nH]c4=O)[nH]c3c2)CC1 is reported as 0.61.
For C[S+]([O-])c1ccc(-c2nc(-c3ccncc3)c(-c3ccc(F)cc3)[nH]2)cc1 (stereo not drawn), the Gini score was 0.74.

Some of these lines once more (set 3):
With Cn1cnc2cc3c(Nc4cccc(Br)c4)ncnc3cc21 the remaining activity was 114%.
For C#Cc1cccc(Nc2ncnc3cc4c(cc23)OCCOCCOCCO4)c1, the remaining activity was 104%.
For O=S(=O)(O)NC1CCCCC1, the remaining activity was 103%.
The remaining activity of O=C(O)C1CCCNC1 (stereo not drawn) is reported as 104%.
With CCC(=O)O[C@]1(C(=O)SCF)[C@H](C)C[C@H]2[C@@H]3C[C@H](F)C4=CC(=O)C=C[C@]4(C)[C@@]3(F)[C@@H](O)C[C@@]21C the remaining activity was 102% and 95%.
The remaining activity of CCN(CC)C(=O)N1CCN(C)CC1 is reported as 103%.
With N=C(N)N the remaining activity was 99.6%.
